Published values gathered from unrelated publications.
Each line is one published result; not all experiments were run side by side. Values joined by “and” are separate records of one study, mostly repeats; a detail may differ. ± gives the spread as reported.
folP: Dihydropteroate synthase (folP, Bacteria, UniProt P0AC13)
Sequence of UniProt P0AC13 (whole entry, looked up): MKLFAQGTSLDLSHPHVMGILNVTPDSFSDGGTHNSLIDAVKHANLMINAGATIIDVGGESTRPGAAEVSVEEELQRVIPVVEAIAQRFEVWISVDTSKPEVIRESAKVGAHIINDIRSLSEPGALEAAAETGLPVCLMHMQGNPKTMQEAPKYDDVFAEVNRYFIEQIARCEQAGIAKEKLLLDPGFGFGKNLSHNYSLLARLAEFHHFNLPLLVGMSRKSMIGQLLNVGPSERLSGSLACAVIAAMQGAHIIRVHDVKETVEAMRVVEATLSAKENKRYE
VSIR: V-type immunoglobulin domain-containing suppressor of T-cell activation (VSIR, Homo sapiens, UniProt Q9H7M9)
Nicotinamide N-methyltransferase SAM-bound: Nicotinamide N-methyltransferase, SAM-bound (Rattus norvegicus, UniProt A0ABK0M0V0)
Sequence of UniProt O94900 (whole entry, looked up): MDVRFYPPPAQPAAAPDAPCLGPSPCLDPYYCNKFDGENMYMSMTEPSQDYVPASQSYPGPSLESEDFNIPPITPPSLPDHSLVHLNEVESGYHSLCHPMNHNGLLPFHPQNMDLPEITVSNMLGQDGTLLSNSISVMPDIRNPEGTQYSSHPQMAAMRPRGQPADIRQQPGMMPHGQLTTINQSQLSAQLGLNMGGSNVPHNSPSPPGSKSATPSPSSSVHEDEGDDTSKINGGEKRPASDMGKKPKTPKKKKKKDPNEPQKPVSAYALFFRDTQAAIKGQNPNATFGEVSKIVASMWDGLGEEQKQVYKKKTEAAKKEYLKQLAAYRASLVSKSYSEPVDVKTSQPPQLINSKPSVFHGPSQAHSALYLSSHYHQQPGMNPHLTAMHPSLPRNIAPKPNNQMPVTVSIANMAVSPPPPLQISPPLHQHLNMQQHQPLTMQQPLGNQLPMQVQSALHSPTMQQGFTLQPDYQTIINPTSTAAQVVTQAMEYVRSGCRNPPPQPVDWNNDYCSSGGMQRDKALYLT
Sequence of UniProt P35218 (whole entry, looked up): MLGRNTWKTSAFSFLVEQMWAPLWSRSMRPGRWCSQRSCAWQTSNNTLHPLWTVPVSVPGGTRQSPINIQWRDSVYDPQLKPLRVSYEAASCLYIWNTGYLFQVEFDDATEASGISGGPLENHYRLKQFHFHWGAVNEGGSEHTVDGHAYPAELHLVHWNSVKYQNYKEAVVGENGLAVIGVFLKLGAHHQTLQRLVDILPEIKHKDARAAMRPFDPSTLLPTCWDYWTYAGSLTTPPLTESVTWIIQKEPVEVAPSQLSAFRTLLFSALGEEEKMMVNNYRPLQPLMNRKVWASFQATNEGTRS
Sequence of UniProt Q16881 (whole entry, unmodified, looked up): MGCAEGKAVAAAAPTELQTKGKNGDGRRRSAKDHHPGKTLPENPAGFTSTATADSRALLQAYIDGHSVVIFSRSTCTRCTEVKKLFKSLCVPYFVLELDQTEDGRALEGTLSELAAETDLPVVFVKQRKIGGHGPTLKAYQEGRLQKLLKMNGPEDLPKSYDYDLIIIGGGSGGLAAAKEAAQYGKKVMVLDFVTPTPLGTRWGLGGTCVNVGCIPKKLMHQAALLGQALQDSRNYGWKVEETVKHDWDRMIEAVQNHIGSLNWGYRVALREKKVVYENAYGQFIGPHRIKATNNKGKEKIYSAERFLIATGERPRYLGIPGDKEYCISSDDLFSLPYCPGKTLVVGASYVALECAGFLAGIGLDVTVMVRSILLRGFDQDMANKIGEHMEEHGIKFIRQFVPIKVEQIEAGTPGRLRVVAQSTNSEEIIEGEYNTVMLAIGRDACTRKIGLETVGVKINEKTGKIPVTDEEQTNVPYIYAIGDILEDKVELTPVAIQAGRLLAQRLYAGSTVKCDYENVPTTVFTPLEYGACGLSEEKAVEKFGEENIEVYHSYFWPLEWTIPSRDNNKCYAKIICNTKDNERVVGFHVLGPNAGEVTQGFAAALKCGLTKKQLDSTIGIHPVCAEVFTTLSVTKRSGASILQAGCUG
Sequence of UniProt P28566 (whole entry, looked up): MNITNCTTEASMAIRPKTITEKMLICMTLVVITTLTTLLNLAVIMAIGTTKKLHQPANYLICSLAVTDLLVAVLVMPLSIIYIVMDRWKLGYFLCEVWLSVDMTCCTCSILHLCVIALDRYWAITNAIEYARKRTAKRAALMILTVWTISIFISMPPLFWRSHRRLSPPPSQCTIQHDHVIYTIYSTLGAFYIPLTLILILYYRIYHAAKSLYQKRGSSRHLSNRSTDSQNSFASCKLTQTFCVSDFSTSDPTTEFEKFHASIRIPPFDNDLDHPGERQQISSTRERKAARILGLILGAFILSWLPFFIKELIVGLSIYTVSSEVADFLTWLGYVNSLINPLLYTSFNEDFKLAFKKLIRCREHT
Sequence of UniProt Q8TEY7 (whole entry, looked up): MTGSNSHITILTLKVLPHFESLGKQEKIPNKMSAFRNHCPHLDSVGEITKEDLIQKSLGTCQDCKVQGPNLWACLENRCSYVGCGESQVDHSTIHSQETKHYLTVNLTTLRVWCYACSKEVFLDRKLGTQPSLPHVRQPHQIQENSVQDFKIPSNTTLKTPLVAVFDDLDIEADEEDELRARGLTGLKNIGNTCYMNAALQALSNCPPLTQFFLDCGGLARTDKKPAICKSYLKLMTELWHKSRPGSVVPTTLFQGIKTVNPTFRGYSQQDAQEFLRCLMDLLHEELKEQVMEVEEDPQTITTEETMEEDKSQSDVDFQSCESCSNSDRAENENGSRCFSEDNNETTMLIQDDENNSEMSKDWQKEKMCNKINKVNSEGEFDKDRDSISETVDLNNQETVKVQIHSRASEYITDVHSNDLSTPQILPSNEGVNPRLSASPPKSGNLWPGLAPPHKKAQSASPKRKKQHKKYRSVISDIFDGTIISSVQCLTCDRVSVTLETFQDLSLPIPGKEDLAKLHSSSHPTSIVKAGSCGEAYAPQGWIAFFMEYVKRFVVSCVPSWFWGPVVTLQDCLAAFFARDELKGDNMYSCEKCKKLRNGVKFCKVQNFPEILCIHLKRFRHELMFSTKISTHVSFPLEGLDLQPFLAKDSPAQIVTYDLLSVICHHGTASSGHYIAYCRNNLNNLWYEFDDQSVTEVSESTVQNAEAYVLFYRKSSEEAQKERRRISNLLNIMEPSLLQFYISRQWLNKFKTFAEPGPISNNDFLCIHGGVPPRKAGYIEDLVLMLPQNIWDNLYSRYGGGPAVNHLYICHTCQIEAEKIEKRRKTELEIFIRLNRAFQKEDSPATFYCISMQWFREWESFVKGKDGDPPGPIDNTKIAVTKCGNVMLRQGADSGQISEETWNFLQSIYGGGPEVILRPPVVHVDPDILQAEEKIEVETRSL
Sequence of UniProt P18031 (whole entry, looked up): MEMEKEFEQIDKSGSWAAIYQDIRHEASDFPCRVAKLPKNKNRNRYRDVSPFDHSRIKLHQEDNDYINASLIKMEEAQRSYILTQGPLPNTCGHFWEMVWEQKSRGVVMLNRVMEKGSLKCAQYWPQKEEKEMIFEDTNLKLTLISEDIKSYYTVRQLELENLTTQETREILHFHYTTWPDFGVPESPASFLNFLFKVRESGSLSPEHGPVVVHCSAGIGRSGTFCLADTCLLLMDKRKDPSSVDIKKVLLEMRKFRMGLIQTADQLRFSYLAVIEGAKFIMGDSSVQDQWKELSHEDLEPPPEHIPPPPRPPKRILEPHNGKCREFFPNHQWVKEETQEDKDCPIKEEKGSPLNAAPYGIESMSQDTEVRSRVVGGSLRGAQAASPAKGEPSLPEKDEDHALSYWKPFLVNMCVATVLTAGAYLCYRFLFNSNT
Sequence of UniProt P69687 (whole entry, looked up): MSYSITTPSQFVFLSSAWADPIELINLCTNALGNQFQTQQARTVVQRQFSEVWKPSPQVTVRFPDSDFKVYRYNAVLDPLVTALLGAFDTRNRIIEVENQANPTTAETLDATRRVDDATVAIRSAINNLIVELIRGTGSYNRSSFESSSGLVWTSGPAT
Sequence of UniProt Q9NSA0 (whole entry, looked up): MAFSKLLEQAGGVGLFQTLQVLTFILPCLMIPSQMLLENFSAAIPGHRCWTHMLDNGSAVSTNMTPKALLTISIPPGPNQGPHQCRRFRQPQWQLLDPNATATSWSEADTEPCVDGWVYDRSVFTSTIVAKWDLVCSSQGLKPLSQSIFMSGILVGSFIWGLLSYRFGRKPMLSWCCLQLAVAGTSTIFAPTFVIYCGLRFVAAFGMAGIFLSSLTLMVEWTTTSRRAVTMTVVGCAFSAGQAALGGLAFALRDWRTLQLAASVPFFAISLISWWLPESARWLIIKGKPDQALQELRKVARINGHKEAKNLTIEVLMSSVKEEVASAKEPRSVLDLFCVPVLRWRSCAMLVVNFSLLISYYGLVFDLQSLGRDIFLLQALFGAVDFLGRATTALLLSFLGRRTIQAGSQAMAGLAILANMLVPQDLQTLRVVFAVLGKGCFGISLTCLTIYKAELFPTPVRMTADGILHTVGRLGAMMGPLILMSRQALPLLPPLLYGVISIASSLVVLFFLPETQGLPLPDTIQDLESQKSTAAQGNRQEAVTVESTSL

Compound | target | test | test system | setting | Kd
CN(C)c1ccc2c(-c3ccc(C(=O)NCCOCCOCCOCCn4cc(COc5cc(C(=O)c6cc(Cl)ccc6NS(=O)(=O)c6ccc(C(C)(C)C)cc6)ccn5)nn4)cc3C(=O)[O-])c3ccc(=[N+](C)C)cc-3oc2c1 | CCR9 (Homo sapiens, UniProt P51686) | binder, NanoBRET | HEK293T |  | 0.195 ± 0.0146 µM
N#Cc1c(N)nc2c(c1-c1ccc(CO)o1)Cc1cc(O)ccc1-2 | Thymocyte selection-associated high mobility group box protein TOX (Homo sapiens, UniProt O94900) | SPR |  |  | 0.92 µM and 0.922 µM
CC(C)[C@H](NC(=O)[C@@H]1CCCN1C(=O)[C@@H](NC(=O)[C@H](CCCNC(=N)N)NC(=O)[C@@H]1CCCN1C(=O)[C@@H](NC(=O)OCC1c2ccccc2-c2ccccc21)C(C)C)[C@@H](C)OP(=O)(O)O)C(=O)NCC(=O)NCC(=O)NCC(=O)N[C@@H](CCCCN)C(N)=O | Peptidyl-prolyl cis-trans isomerase NIMA-interacting 1, WW domain (PIN1, Homo sapiens, UniProt Q13526) | binding, competitive ELISA |  | pH 7.3 | 36 ± 4 µM
CN1CCN(c2ccc3[nH]c(-c4ccc5[nH]c(-c6ccc(OCCCCNC(=O)c7cccc8c7C(=O)OC87c8ccc(N(C)C)cc8[Si](C)(C)c8cc(N(C)C)ccc87)cc6)nc5c4)nc3c2)CC1 | hairpin DNA | binding, fluorescence titration | PBS | 1 h, room temperature | 5.2 ± 0.9 µM
O=C(O)CCC(=O)c1cccc(NS(=O)(=O)c2c[nH]c3ncccc23)c1 | Ubiquitin carboxyl-terminal hydrolase 33, ZnF-UBD domain (USP33, Homo sapiens, UniProt Q8TEY7) |  |  |  | > 1000 µM
Nc1nc2[nH]nc(CCC(=O)O)c(=O)c2c(=O)[nH]1 | folP | binding, SPR |  |  | 0.0783 µM
COc1ccc2[nH]cc(CCNC(=O)c3nnc(-c4cccc(Br)c4)o3)c2c1 | VSIR | binding, MST |  |  | 1.33 µM
CCCC[C@@H]1NC(=O)[C@H](Cc2ccc(O)cc2)NC(=O)[C@@H]2CCCN2C(=O)[C@H](CC(=O)O)NC(=O)[C@H](C)NC(=O)[C@H](Cc2ccccc2)NC(=O)[C@@H]2CSCCC(=O)N3CN(CN(C3)C(=O)CCSC[C@@H](C(=O)N[C@@H](C)C(N)=O)NC1=O)C(=O)CCSC[C@H](NC(C)=O)C(=O)N[C@@H](CC(C)(C)C)C(=O)N1CCC[C@H]1C(=O)N[C@@H](CCC(=O)O)C(=O)N[C@H](CCCCNC(=O)CCc1cn(CCOCCOCCOCCN(CCOCCOCCOCCC(=O)N[C@H]3CSCCC(=O)N4CN5CN(C4)C(=O)CCSC[C@H](NC(=O)[C@@H](CC(=O)O)NC(=O)[C@H](Cc4cccc6ccccc46)NC(=O)[C@@H]4CCCN4C3=O)C(=O)N[C@@H](CCSC)C(=O)N[C@@H](CCCCNC(=N)N)C(=O)N[C@@H](CC(=O)O)C(=O)N[C@@H](Cc3c[nH]c4ccccc34)C(=O)N[C@@H](CO)C(=O)N[C@@H]([C@@H](C)O)C(=O)N3CCC[C@H]3C(=O)N3C[C@H](O)C[C@H]3C(=O)N[C@@H](Cc3c[nH]c4ccccc34)C(=O)N[C@H](C(N)=O)CSCCC5=O)CCOCCOCCOCCn3cc(CCC(=O)NCCCC[C@H]4NC(=O)[C@H](CCC(=O)O)NC(=O)[C@@H]5CCCN5C(=O)[C@H](CC(C)(C)C)NC(=O)[C@@H](NC(C)=O)CSCCC(=O)N5CN6CN(C5)C(=O)CCSC[C@H](NC(=O)[C@H](Cc5ccc(O)cc5)NC(=O)[C@@H]5CCCN5C4=O)C(=O)N[C@@H](Cc4ccccc4)C(=O)N[C@@H](C)C(=O)N[C@@H](CC(=O)O)C(=O)N4CCC[C@H]4C(=O)N[C@@H](Cc4ccc(O)cc4)C(=O)N[C@@H](CCCC)C(=O)N[C@H](C(=O)N[C@@H](C)C(N)=O)CSCCC6=O)nn3)nn1)C(=O)N1CCC[C@H]1C(=O)N[C@@H](Cc1ccc(O)cc1)C(=O)N2 | Cell adhesion molecule 2 (CADM2, Homo sapiens, UniProt Q8N3J6) | SPR |  |  | > 0.2 µM
CCc1nc2cc3ccccc3cc2cc1C(=O)N1CCC[C@H]1C(=O)N[C@@H](CCC/C=C/CCC[C@H](NC(=O)[C@@H]1CCCN1C(=O)c1cc2cc3ccccc3cc2nc1CC)C(=O)N[C@@H](CCCCN)C(=O)NCCCN)C(=O)N[C@@H](CCCCN)C(=O)NCCCN | (CAG)10 RNA | SPR |  |  | 0.878 µM
O=C(O)CCC(NC(=O)NC(CCCCNC(=O)C(Cc1ccc2ccccc2c1)NC(=O)C1CCC(CNC(=O)CCCCCNC(=S)Nc2ccc3c(c2)C(=O)OC32c3ccc(O)cc3Oc3cc(O)ccc32)CC1)C(=O)O)C(=O)O (centres unmarked) | N-acetylated-alpha-linked acidic dipeptidase 2 (Homo sapiens, UniProt Q9Y3Q0) | cell-free assay, FP |  |  | 0.00112 µM
COc1ccc(C(N)=O)cn1 | Nicotinamide N-methyltransferase SAM-bound | substrate, SPR |  | 37 °C, with: SAM | 50.1 µM
CC(C(=O)O)c1nn(C)c2nc(N)[nH]c(=O)c2c1=O (centres unmarked) | folP | binding, SPR |  |  | 0.0035 µM
CC(C)C[C@H](NC(=O)[C@H](CC(=O)O)NC(=O)[C@@H](NC(=O)[C@H](CC(=O)O)NC(=O)CNC(=O)[C@H](CCC(=O)O)NC(=O)[C@H](CC(=O)O)NC(=O)CNC(=O)CCCC[C@@H]1SC[C@@H]2NC(=O)N[C@@H]21)[C@@H](C)O)C(=O)N[C@@H](Cc1ccc(OP(=O)(O)O)cc1)C(=O)N[C@@H](CC(=O)O)C(=O)N[C@@H](Cc1ccc(OP(=O)(O)O)cc1)C(=O)N[C@@H](Cc1ccc(OP(=O)(O)O)cc1)C(=O)N1CCC[C@H]1C(=O)N[C@@H](CCC(=O)O)C(=O)N[C@@H](CCC(=O)O)C(=O)N[C@@H](CC(=O)O)C(=O)N[C@H](C(N)=O)[C@@H](C)O | Prothrombin, thrombin (F2, Homo sapiens, UniProt P00734, S568A) | binding, biolayer interferometry |  | pH 7.4 | 1.03 ± 0.05 µM
CCc1nc2cc3ccccc3cc2cc1C(=O)N1CCC[C@H]1C(=O)N[C@@H](C/C=C\C[C@H](NC(=O)[C@@H]1CCCN1C(=O)c1cc2cc3ccccc3cc2nc1CC)C(=O)N[C@@H](CCCCN)C(=O)NCCCN)C(=O)N[C@@H](CCCCN)C(=O)NCCCN | (CAG)10 RNA | SPR |  |  | 0.052 µM
C=CC(=O)N1C[C@H](C)N(c2nc(OC[C@@]34CCCN3C[C@H](F)C4)nc3c(F)c(-c4ccc(F)c5sc(N)c(C#N)c45)c(C(F)(F)F)cc23)C[C@H]1C | GTPase KRas, GppNHp-bound (KRAS, Homo sapiens, UniProt P01116, Q61R) |  |  |  | 85.1 µM and 78.2 µM
CCCSC(SCCC)c1ccc(OCCNS(=O)(=O)c2ccccc2C(F)(F)F)c(OC)c1 | CP (Tobacco mosaic virus, UniProt P69687) | binding, MST |  |  | 221 µM

Compound | target | test | test system | setting | Kd
CCCCCCCCCCCCOc1c(O)cc(C(=O)OC2Cc3c(O)cc(O)cc3OC2c2cc(O)c(O)c(O)c2)cc1O (centres unmarked) | Albumin (ALB, Homo sapiens, UniProt P02768) | tryptophan fluorescence quenching |  |  | 1.92 µM
O=c1cc(-c2ccccc2)oc2c(OCCCCN3CCCC3)c(OCc3ccccc3)cc(O)c12 | TXNRD1 (Homo sapiens, UniProt Q16881, G442A) | binding, microscale thermophoresis |  |  | 284 µM
CC(C(=O)O)c1n[nH]c2nc(N)[nH]c(=O)c2c1=O (centres unmarked) | folP | binding, SPR |  |  | 0.00583 µM
O=C(NS(=O)(=O)c1cccs1)c1cc2ccccc2n1Cc1ccc(Br)c2ccccc12 | SLC22A11 (Homo sapiens, UniProt Q9NSA0) | binding, surface plasmon resonance |  |  | 0.711 µM
CCNCc1cc(/C=N/Nc2ccc(C(=O)O)cc2)ccc1OS(=O)(=O)c1ccc(C)cc1 | HTR1E (Homo sapiens, UniProt P28566) | dynamic mass redistribution | HEK293 expressing HTR1E |  | 0.0021 ± 0.0002 µM
COc1ccccc1-c1nnc(SC(C)c2nnc(-c3cccs3)o2)o1 (racemic) | VSIR | binding, MST |  |  | 0.49 µM
CNc1cc(C)c(C(N)=O)cn1 | Nicotinamide N-methyltransferase SAM-bound | substrate, SPR |  | 37 °C, with: SAM | 3.98 µM
O=C(CCCCCNC(=S)Nc1ccc2c(c1)C(=O)OC21c2ccc(O)cc2Oc2cc(O)ccc21)N[C@@H](Cc1c[nH]c2ccccc12)C(=O)N[C@@H](Cc1c[nH]c2ccccc12)C(=O)N[C@@H](Cc1c[nH]c2ccccc12)C(=O)N[C@@H](Cc1c[nH]c2ccccc12)C(=O)N[C@@H](Cc1c[nH]c2ccccc12)C(=O)N[C@@H](Cc1c[nH]c2ccccc12)C(=O)N[C@@H](Cc1c[nH]c2ccccc12)C(=O)N[C@@H](Cc1c[nH]c2ccccc12)C(=O)O | G8 | binding, fluorescence intensity probability | streptavidin-coated polystyrene microbeads |  | 0.000118 µM
C[C@H](CCC(=O)NCCS(=O)(=O)O)[C@H]1CC[C@H]2[C@@H]3CC[C@@H]4C[C@H](OS(=O)(=O)O)CC[C@]4(C)[C@H]3CC[C@]12C | SLC25A13 (Homo sapiens, UniProt Q9UJS0) | isothermal titration calorimetry | vesicles |  | 109 ± 1e+06 µM
O=C(O)CCC(=O)N([O-])CCCCCNC(=O)CCC(=O)N([O-])CCCCCNC(=O)CCC(=O)N([O-])CCCCCO.[Fe+3] | Iron(3+)-hydroxamate-binding protein YxeB (yxeB, Bacillus subtilis, UniProt P54941) | binding, Trp fluorescence quenching |  | pH 7.4, with: yxeB 100 nM | 0.03 ± 0.005 µM
Cc1nn(C)c2nc(N)[nH]c(=O)c2c1=O | folP | binding, SPR |  |  | 0.0049 µM
NS(=O)(=O)c1cc(C(=O)NCCCC(=O)O)c(NC2CCCCC2)cc1Cl | CA5A (Homo sapiens, UniProt P35218) |  |  | pH 7 | 100 µM
CC1(C)C[C@@H](Nc2cccc(-c3sc(C(=O)O)c(OCC(=O)O)c3Cl)c2)CCN1S(=O)(=O)Cc1cccc(NC(=O)CN2CCC(c3ccc4c(c3)oc(=O)n4C3CCC(=O)NC3=O)CC2)c1 (some centres unmarked) | PTPN1 (Homo sapiens, UniProt P18031) | binding, BLI |  |  | 0.085 µM
Cn1ncc2cc(-c3cncc(Cl)c3N3CCC4(CCNC4=O)CC3)ccc21 | CCNC human | SILAC competition | LS174T-L5 lysate |  | 0.015 µM
NCCCC[C@H](NC(=O)[C@H](C/C=C\C[C@H](NC(=O)[C@@H]1CCCN1)C(=O)N[C@@H](CCCCN)C(=O)NCCCN)NC(=O)[C@@H]1CCCN1)C(=O)NCCCN | (CAG)10 RNA | SPR |  |  | 0.176 µM
Cn1nc(CC(=O)O)c(=O)c2c(=O)[nH]c(N)nc21 | folP | binding, SPR |  |  | 0.00321 µM
